# Published values collected from several papers.
# A part holds a random share of what one study measured. “And” joins repeats or separate records; there may be more than shown.
# UniProt O96017, sequence (whole entry, looked up): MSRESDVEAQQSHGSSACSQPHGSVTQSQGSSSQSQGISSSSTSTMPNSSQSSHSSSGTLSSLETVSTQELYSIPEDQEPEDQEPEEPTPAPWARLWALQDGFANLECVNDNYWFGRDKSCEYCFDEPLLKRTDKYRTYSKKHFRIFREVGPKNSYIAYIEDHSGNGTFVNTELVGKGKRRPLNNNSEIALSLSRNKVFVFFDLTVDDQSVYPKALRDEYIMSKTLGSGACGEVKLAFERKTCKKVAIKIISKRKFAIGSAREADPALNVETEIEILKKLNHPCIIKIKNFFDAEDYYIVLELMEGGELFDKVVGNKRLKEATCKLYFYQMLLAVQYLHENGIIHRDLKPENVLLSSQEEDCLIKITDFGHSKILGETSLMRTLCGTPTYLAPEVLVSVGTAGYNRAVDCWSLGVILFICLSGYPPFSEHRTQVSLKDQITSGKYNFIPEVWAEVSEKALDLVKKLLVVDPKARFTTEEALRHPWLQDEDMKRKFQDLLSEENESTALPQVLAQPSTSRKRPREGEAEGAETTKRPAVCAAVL
# UniProt P10721, sequence (whole entry, unmodified, looked up): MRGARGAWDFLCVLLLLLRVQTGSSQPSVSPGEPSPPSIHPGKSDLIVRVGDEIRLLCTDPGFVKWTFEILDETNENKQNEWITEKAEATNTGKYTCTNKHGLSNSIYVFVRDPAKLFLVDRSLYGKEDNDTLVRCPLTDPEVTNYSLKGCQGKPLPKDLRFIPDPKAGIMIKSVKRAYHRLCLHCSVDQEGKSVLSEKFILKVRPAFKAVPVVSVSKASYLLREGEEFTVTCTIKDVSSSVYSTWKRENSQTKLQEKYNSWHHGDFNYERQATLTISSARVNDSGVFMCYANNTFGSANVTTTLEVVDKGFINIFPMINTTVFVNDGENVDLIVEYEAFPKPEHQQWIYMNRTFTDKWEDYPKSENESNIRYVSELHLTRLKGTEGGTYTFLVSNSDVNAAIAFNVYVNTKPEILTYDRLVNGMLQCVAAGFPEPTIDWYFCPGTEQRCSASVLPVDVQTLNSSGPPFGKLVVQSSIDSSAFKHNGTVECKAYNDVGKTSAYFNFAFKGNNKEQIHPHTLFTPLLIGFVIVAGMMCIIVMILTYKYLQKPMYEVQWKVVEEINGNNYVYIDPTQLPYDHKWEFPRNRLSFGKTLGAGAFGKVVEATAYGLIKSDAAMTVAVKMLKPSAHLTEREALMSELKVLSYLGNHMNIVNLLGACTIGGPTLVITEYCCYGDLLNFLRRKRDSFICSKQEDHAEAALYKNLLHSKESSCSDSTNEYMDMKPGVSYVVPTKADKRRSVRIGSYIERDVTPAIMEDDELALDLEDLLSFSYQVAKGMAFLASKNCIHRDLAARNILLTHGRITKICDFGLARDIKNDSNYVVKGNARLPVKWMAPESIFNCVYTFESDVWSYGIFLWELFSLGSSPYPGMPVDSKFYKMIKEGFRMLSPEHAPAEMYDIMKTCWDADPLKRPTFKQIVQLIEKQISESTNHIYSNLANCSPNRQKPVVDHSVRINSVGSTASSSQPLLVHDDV
# UniProt P42685, sequence (whole entry, looked up): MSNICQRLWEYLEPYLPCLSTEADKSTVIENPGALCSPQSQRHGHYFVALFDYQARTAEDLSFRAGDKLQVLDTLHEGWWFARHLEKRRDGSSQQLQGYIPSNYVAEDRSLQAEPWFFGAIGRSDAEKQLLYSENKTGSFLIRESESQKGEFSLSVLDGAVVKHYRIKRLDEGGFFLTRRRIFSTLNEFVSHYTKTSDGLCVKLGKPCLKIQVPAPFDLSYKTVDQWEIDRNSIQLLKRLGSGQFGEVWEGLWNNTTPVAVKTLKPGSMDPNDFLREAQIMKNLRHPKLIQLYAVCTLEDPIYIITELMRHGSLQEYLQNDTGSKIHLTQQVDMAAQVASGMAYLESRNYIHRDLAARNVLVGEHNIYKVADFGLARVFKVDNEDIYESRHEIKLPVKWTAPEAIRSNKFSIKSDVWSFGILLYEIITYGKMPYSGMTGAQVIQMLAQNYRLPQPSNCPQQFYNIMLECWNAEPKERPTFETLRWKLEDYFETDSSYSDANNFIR
# UniProt P09769, sequence (whole entry, looked up): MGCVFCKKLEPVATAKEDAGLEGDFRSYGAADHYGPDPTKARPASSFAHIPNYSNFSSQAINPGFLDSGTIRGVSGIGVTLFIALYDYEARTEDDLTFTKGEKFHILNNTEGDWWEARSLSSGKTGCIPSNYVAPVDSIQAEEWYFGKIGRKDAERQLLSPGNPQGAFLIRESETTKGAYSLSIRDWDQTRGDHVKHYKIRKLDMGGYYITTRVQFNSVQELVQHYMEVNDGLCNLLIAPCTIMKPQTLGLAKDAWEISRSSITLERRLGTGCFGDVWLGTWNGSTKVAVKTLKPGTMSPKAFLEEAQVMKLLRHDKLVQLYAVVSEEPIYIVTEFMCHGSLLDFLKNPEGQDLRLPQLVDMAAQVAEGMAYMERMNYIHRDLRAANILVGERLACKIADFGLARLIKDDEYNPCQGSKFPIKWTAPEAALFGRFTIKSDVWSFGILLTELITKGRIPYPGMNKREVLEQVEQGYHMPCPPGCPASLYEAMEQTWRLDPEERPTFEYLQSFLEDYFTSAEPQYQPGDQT
# UniProt O60331, sequence (whole entry, looked up): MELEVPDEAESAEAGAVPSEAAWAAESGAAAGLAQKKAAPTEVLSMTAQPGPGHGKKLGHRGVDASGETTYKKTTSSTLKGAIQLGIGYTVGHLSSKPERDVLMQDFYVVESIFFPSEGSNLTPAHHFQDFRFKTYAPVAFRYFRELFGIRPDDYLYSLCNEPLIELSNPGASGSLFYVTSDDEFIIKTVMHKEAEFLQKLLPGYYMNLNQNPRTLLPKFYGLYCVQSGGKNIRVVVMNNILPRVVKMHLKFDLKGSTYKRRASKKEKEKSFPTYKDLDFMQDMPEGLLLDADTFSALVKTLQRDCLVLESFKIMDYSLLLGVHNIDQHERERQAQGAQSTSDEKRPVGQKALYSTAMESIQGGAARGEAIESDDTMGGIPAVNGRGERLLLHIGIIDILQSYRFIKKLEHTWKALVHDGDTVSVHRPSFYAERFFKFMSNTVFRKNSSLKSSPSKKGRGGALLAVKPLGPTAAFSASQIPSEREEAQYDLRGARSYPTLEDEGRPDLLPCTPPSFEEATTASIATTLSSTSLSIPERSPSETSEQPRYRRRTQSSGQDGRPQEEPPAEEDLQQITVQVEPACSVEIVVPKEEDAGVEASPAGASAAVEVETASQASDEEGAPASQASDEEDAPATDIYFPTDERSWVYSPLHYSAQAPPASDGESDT
# UniProt Q8TBX8, sequence (whole entry, looked up): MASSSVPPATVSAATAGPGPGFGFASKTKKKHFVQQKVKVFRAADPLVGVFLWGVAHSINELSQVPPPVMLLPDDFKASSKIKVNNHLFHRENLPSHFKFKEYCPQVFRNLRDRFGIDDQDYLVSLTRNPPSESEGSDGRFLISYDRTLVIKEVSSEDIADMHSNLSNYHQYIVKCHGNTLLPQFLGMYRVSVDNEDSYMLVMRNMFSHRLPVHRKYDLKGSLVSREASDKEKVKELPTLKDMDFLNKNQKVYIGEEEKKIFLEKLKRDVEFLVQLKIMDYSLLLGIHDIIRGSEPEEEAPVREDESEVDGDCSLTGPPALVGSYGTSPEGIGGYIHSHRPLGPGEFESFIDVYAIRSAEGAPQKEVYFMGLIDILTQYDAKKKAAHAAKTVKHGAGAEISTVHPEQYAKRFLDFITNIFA
# UniProt Q13131, sequence (whole entry, looked up): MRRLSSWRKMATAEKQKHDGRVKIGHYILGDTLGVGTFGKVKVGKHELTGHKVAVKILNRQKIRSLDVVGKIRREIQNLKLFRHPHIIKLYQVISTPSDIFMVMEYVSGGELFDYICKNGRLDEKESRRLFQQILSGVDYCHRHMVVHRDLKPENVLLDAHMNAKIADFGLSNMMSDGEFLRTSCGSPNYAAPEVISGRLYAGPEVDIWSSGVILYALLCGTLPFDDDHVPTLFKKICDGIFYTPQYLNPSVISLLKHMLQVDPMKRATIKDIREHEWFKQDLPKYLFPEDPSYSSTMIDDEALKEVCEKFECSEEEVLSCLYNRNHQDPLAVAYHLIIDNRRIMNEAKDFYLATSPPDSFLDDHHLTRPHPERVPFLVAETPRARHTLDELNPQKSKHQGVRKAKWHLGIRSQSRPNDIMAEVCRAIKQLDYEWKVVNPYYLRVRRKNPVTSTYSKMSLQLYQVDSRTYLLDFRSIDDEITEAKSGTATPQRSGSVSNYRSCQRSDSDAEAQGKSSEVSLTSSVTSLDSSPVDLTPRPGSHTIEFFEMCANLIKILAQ
# UniProt P45983, sequence (whole entry, looked up): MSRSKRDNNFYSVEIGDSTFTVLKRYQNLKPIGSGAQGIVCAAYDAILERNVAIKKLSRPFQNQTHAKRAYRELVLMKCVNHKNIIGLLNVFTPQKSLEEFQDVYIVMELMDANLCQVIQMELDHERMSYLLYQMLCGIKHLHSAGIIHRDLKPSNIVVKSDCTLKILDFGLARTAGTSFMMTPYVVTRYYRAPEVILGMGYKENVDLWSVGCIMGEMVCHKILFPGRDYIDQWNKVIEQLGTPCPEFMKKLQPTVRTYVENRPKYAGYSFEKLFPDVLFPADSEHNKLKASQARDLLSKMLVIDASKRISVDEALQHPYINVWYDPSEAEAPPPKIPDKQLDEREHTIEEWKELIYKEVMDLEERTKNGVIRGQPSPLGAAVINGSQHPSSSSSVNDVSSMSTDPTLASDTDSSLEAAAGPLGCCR
# UniProt Q8IU85, sequence (whole entry, looked up): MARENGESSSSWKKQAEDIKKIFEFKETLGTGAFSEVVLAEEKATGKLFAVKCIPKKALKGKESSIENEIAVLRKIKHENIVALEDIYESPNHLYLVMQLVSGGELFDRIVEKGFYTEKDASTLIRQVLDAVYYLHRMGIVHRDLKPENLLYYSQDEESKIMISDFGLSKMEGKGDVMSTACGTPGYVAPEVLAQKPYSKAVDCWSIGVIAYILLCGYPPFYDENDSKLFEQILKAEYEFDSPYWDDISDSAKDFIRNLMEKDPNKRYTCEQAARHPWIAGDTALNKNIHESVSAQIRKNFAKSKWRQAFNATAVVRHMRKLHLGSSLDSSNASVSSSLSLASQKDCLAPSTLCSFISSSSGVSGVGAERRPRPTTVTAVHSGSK

# Series 1
# Cell line: HaCaT
# Concentration: 100 µM
# Time: 36 h
SMILES,viability
O=C(c1ccccc1)c1ccc2n1CCC2C(=O)O (stereo not drawn),8.07%
Nc1ccc(S(=O)(=O)Nc2ccccn2)cc1,54.7%
COc1ccccc1OCC(O)CN1CCN(CC(=O)Nc2c(C)cccc2C)CC1 (stereo not drawn),83.4%
COc1c2occc2cc2ccc(=O)oc12,47.5%
C#C[C@]1(O)CC[C@H]2[C@@H]3CCC4=CC(=O)CC[C@@H]4[C@H]3C(=C)C[C@@]21CC,84.3%
COc1c(N2C[C@@H]3CCCN[C@@H]3C2)c(F)cc2c(=O)c(C(=O)O)cn(C3CC3)c12,90.3%
NS(=O)(=O)c1cc2c(cc1Cl)N=C(CSCc1ccccc1)NS2(=O)=O,83.7%
O=C(Oc1ccccc1C(=O)O)c1ccccc1O,82.6%

# Series 2
# Species: mouse
# Sample: microsomes or S9
# Concentration: 2 µM
# Time: 0.5 h
Compound,remaining compound [%]
CCOc1cc(=O)n2c(c1C(=O)NCC1CCCO1)CCCCC2 (stereo not drawn),60.9
Cn1ccc(-c2cnc(-c3cc(F)ccc3[N+](=O)[O-])nc2)n1,76.2
Cc1ccc(N(CC(O)CN2CCCCC2)S(=O)(=O)c2ccc3ccccc3c2)cc1 (stereo not drawn),1.25
O=C(COc1ccc2c3ccccc3n(C(=O)c3cccc4ccccc34)c2c1)N1CCCC1,42.5
COC(=O)c1scc2c(NCCc3ccc(F)cc3)c(C(C)=O)c(=O)[nH]c12,2.31
Cc1ccc(S(=O)(=O)Nc2nc3ccc(NC(=O)c4cc(-c5cccs5)n[nH]4)cc3s2)cc1,0.166
Cc1cc(C)c(C)c(OCCCN2CCOCC2)c1,0.421

# Series 3
# Structure (SMILES): CSc1cccnc1N1CCN(Cc2nc3ccccc3[nH]2)CC1
# Concentration: 1 µM
target,assay,remaining binding
"5'-AMP-activated protein kinase catalytic subunit alpha-1 (PRKAA1, Homo sapiens, UniProt Q13131)","cell-free assay, competition with immobilised ligand",83%
"NUAK family SNF1-like kinase 1 (NUAK1, Homo sapiens, UniProt O60285)","cell-free assay, competition with immobilised ligand",100%
"Phosphatidylinositol 5-phosphate 4-kinase type-2 gamma (PIP4K2C, Homo sapiens, UniProt Q8TBX8)","cell-free assay, competition with immobilised ligand",81%
"Serine/threonine-protein kinase RIO1 (RIOK1, Homo sapiens, UniProt Q9BRS2)","cell-free assay, competition with immobilised ligand",100%
"Cyclin-dependent kinase-like 5 (CDKL5, Homo sapiens, UniProt O76039)","binding, competition with immobilised ligand",76%
"Activin receptor type-1-like (ACVRL1, Homo sapiens, UniProt P37023)","binding, competition with immobilised ligand",100%
"Tyrosine-protein kinase Fgr (FGR, Homo sapiens, UniProt P09769)","cell-free assay, competition with immobilised ligand",100%
"Calcium/calmodulin-dependent protein kinase type II subunit gamma (CAMK2G, Homo sapiens, UniProt Q13555)","cell-free assay, competition with immobilised ligand",100%
"Phosphatidylinositol 3-kinase C2 domain-containing subunit gamma (PIK3C2G, Homo sapiens, UniProt O75747)","cell-free assay, competition with immobilised ligand",95%
"Dual specificity testis-specific protein kinase 1 (TESK1, Homo sapiens, UniProt Q15569)","cell-free assay, competition with immobilised ligand",100%
"Calcium/calmodulin-dependent protein kinase type 1D (CAMK1D, Homo sapiens, UniProt Q8IU85)","cell-free assay, competition with immobilised ligand",100%
"Serine/threonine-protein kinase tousled-like 2 (TLK2, Homo sapiens, UniProt Q86UE8)","cell-free assay, competition with immobilised ligand",100%
"Phosphatidylinositol 4-phosphate 5-kinase type-1 gamma (PIP5K1C, Homo sapiens, UniProt O60331)","cell-free assay, competition with immobilised ligand",100%
"Atypical kinase COQ8A, mitochondrial (COQ8A, Homo sapiens, UniProt Q8NI60)","cell-free assay, competition with immobilised ligand",100%
"Serine/threonine-protein kinase Chk2 (CHEK2, Homo sapiens, UniProt O96017)","cell-free assay, competition with immobilised ligand",96%
"Tyrosine-protein kinase FRK (FRK, Homo sapiens, UniProt P42685)","cell-free assay, competition with immobilised ligand",92%
"Mitogen-activated protein kinase 8 (MAPK8, Homo sapiens, UniProt P45983)","cell-free assay, competition with immobilised ligand",77%
"Eukaryotic translation initiation factor 2-alpha kinase 1 (EIF2AK1, Homo sapiens, UniProt Q9BQI3)","cell-free assay, competition with immobilised ligand",93%
"Serine/threonine-protein kinase MRCK gamma (CDC42BPG, Homo sapiens, UniProt Q6DT37)",competition binding,100%
"Myosin light chain kinase, smooth muscle (MYLK, Homo sapiens, UniProt Q15746)","binding, competition with immobilised ligand",94%
"Mast/stem cell growth factor receptor Kit (KIT, Homo sapiens, UniProt P10721, V559D)","cell-free assay, competition with immobilised ligand",96%
"Leucine-rich repeat serine/threonine-protein kinase 2 (LRRK2, Homo sapiens, UniProt Q5S007)","cell-free assay, competition with immobilised ligand",97%
"Tyrosine-protein kinase ABL1, phosphorylated (ABL1, Homo sapiens, UniProt P00519, E255K)","cell-free assay, competition with immobilised ligand",67%
"Calcium/calmodulin-dependent protein kinase type 1G (CAMK1G, Homo sapiens, UniProt Q96NX5)","cell-free assay, competition with immobilised ligand",100%
"ALK tyrosine kinase receptor (ALK, Homo sapiens, UniProt Q9UM73, L1196M)","cell-free assay, competition with immobilised ligand",100%

# Series 4
# Cell line: Huh-7
# Concentration: 10 µM
# Time: 24 h
Compound,viability
CCn1cc(C(=O)O)c(=O)c2cc(F)c(N3CCNC(C)C3)c(F)c21 (stereo not drawn),93.6%
C[C@@H]1CC2C3CCC4=CC(=O)C=C[C@]4(C)[C@@]3(F)[C@@H](O)C[C@]2(C)[C@H]1C(=O)CO (stereo partly drawn),103%
COCCCOc1ccnc(C[S+]([O-])c2nc3ccccc3[nH]2)c1C (stereo not drawn),96.4%
CCC1(C)OC(=O)N(C)C1=O (stereo not drawn),98%
CN(C)CCC=C1c2ccccc2C=Cc2ccccc21,100%
CC(=O)OCC[N+](C)(C)C,99.1%
Cn1cc[nH]c1=S,96.3%

# Series 5
# Cell line: mouse MPNST tumor cells
# Method: high-content nuclear imaging
# Item: cell number
# Concentration: 10 µM
# Time: 12 h
# Notes: mean of 2 replicates
# Relative to: plate mean
# Direction: higher = more cells
SMILES,nuclei count
COc1cc(O)c(CC=C(C)C)c(O)c1C(=O)/C=C/c1ccc(O)cc1,-3.99 z-score
Clc1ccc(COC(Cn2ccnc2)c2ccc(Cl)cc2Cl)cc1 (stereo not drawn),2.04 z-score
Cc1c(OCC(F)(F)F)ccnc1C[S+]([O-])c1nc2ccccc2[nH]1 (stereo not drawn),0.633 z-score and 0.817 z-score
Cc1cccc(NC(=O)CN2CCC(c3ccccn3)CC2)c1,0.799 z-score
CCCCOc1cc(C(=O)OCCN(CC)CC)ccc1N,2.04 z-score
NCCCCCC(=O)O,0.395 z-score
CCCCc1oc2ccccc2c1C(=O)c1cc(I)c(OCCN(CC)CC)c(I)c1,-4.65 z-score

# Excerpt of the above (series 4):
Compound,viability
CC(=O)OCC[N+](C)(C)C,99.1%
CCC1(C)OC(=O)N(C)C1=O (stereo not drawn),98%
CN(C)CCC=C1c2ccccc2C=Cc2ccccc21,100%
COCCCOc1ccnc(C[S+]([O-])c2nc3ccccc3[nH]2)c1C (stereo not drawn),96.4%
